# Experimental data gathered from unrelated publications.
# Lines come from different studies, so protocols differ. ± gives the spread as reported.
SMILES,test,test system,conditions,measurement,value
COc1c(OCCCN2CCOCC2)ccc2c1N=C(NC(=O)c1cnc(N)nc1)N1CCN=C21,,patients with advanced malignancies,"intravenous, dose not given, all grades, all cohorts, added: gemcitabine",oral mucositis incidence,22%
CCc1ccc(CC/C=C/c2ccc3c(c2)C(=O)CC3)cc1,,"Sprague-Dawley rat, female","oral, 450 mg/kg/day, 14 days",Lymphocyte percentage,71.7%
Nc1nc2cc(-c3ccc4ncc(C(=O)N5CCOCC5)n4c3)ccc2o1,"drug-related adverse events, all grades",patients with advanced solid tumours,dose not given,patients with adverse events,89%
CCc1cc(C(=O)NC)c2nccc(N3CCc4c(cc(Cn5ccnc5)cc4-c4cn(C)nc4C(F)(F)F)C3=O)c2c1,,"Sprague Dawley rats, male, bile duct-cannulated, urine","oral, 50 mg/kg, 0--24 h",amount excreted,43000 ± 22000 ng
CCN1CCN(Cc2ccc(Nc3ncc(F)c(-c4cc(F)c5nc6n(c5c4)[C@H](C)CCC6)n3)nc2)CC1,Phase Ia dose escalation,patients with advanced solid tumours,"dose not given, monotherapy, any grade",blood fibrinogen decreased incidence,33.3%
C[C@]1(CO)Cc2ncn(-c3ccc(C#N)c(Cl)c3)c2C(=O)O1,,Japanese subjects,80 mg single dose,drug-related orthostatic hypotension incidence,0%
Cn1c(-c2ccc(C(N)=O)cc2F)nnc1C(C)(C)Oc1c(F)cc(Cl)cc1F,,human,"oral, 3 mg, single ascending dose",medical device site reaction TEAE,16.7%
CCN1[C@@H](C(=O)NC23CCC(C(=O)O)(CC2)CC3)[C@H](c2cccc(Cl)c2F)[C@]2(C(=O)Nc3cc(Cl)ccc32)C12CCCCC2,,advanced solid tumour patients,"oral, dose not given",treatment-related adverse events,100%
CO[C@H]1C[C@@H]2CC[C@@H](C)[C@@](O)(O2)C(=O)C(=O)N2CCCC[C@H]2C(=O)O[C@H]([C@H](C)C[C@@H]2CC[C@@H](OC(=O)NCCOCCOCCOCCOCCOCCOCCOCCOCCC(=O)N3CCc4cc(Cn5nc(-c6ccc7oc(N)nc7c6)c6c(N)ncnc65)ccc4C3)[C@H](OC)C2)C[C@@H](O)[C@H](C)/C=C(\C)[C@@H](O)[C@@H](OC)C(=O)[C@H](C)C[C@H](C)/C=C/C=C/C=C/1C,"phase 1 dose escalation, measured: mucositis",advanced solid tumour patients,"intravenous, 8 mg weekly, any grade",TRAE incidence,43.8%
COc1ccc2nc3cc(Cl)ccc3c(Nc3cc(CN4CCCC4)c(O)c(CN4CCCC4)c3)c2n1,,"mouse, blood","intraperitoneal, 28 mg/kg",ALT activity,0.22 U/L
N#C[C@@]1(c2ccc3c(N)ncnn23)O[C@H](CO)[C@@H](O)[C@H]1O,,human,"dose not given, CYP3A induction, added: carbamazepine",change in exposure,≤ 20%
CC(C)C[C@H](NC(=O)[C@H](CCCCN)NC(=O)OCC1c2ccccc2-c2ccccc21)C(=O)N[C@H](C(=O)N[C@@H](Cc1ccccc1)C(=O)N[C@@H](Cc1ccccc1)C(=O)N[C@@H](CCCCN)C(=O)NCC(=O)N[C@@H](Cc1ccccc1)C(=O)N[C@@H](C)C(=O)N[C@@H](Cc1c[nH]c2ccccc12)C(=O)N[C@@H](CC(N)=O)C(=O)N[C@H](C(=O)N[C@H]1CSSC[C@@H](C(=O)N[C@@H](Cc2c[nH]cn2)C(=O)N[C@@H](CCCNC(=N)N)C(=O)N[C@@H](CCCNC(=N)N)C(=O)N[C@@H](C)C(=O)N[C@@H](CC(N)=O)C(N)=O)NC(=O)[C@H](C(C)C)NC(=O)[C@H](CCCNC(=N)N)NC(=O)[C@H](C(C)C)NC(=O)CNC(=O)[C@H](CC(N)=O)NC(=O)[C@H](CCCNC(=N)N)NC(=O)[C@H](Cc2ccc(O)cc2)NC(=O)[C@H](C(C)C)NC1=O)C(C)C)C(C)C,,"ICR mice, blood","intraductal mammary, 10 mg/kg, day 5",platelet distribution width,15.34 ± 0.15%
O[C@H]1CCCN[C@@H]1CCCn1cnc2c(Cl)c(Cl)ccc21,,"human, UGT2B7 NN phenotype, plasma","oral, 150 mg, single dose",AUC(0-12 h),751 ng·h/mL
COc1ncccc1-c1cnn2ccc(N3CCN(C(=O)OC(C)C)CC3)nc12,,"mouse nerve ligation model, brain","oral, 3 mg/kg, 120 min after last dose, repeat dosing day 1",drug concentration,1.9 µM
CCCCCCCCCCCCCCCC(=O)N[C@@H](CCC(=O)NCCCC[C@H](NC(=O)[C@H](CC(=O)O)NC(=O)[C@H](CO)NC(=O)[C@@H](NC(=O)[C@H](Cc1ccccc1)NC(=O)[C@@H](NC(=O)CNC(=O)[C@H](CCC(N)=O)NC(=O)[C@H](CO)NC(=O)[C@@H](N)Cc1c[nH]cn1)[C@@H](C)O)[C@@H](C)O)C(=O)N[C@@H](CO)C(=O)N[C@@H](CCC(=O)O)C(=O)N[C@@H](Cc1ccc(O)cc1)C(=O)N[C@@H](CC(C)C)C(=O)N[C@@H](CC(=O)O)C(=O)N[C@@H](CO)C(=O)N[C@@H](CCC(=O)O)C(=O)N[C@@H](CCCNC(=N)N)C(=O)N[C@@H](C)C(=O)N[C@@H](CCCNC(=N)N)C(=O)N[C@@H](CC(=O)O)C(=O)N[C@@H](Cc1ccccc1)C(=O)N[C@H](C(=O)N[C@@H](C)C(=O)N[C@@H](Cc1c[nH]c2ccccc12)C(=O)N[C@@H](CC(C)C)C(=O)N[C@@H](CCC(=O)O)C(=O)N[C@@H](C)C(=O)NCC(=O)NCC(=O)O)C(C)C)C(=O)O,,"human, all renal groups","sc, 100 µg single dose",treatment-related adverse events,54.1%
CC(C)n1c(C2CCNCC2)nc2c([N+](=O)[O-])c(Br)c(Br)cc21,measured: Pneumonia,AML patients,125 mg,adverse events causing discontinuation,2%
C[C@H]1CN(C(=O)CC#N)[C@]12CCN(c1ncnc3[nH]ccc13)C2,,"minipig, female","dermal, 20 mg/kg repeated, 9 months",Cmax at NOAEL,5 ng/mL
NC1(C(=O)N[C@@H](CCO)c2ccc(Cl)cc2)CCN(c2nc[nH]c3nccc2-3)CC1,,metastatic CRPC patients,"400 mg b.i.d., any grade, treatment-related, added: enzalutamide 160 mg daily",incidence of Nausea,42.9%
Cc1cccc(Cn2nc(C3CC3)c3c(NC(=O)c4cnc5cc(OCCN6CCN(C)CC6)ccn45)cccc32)n1,measured: AST increased,human advanced solid tumours,"oral, 400 mg, all-causality",adverse events incidence,57.1%
C[C@]1(O)C[C@@](N)(c2ccc(-c3nc4n(c3-c3ccccc3)COc3ccncc3-4)cc2)C1,,"human, advanced or metastatic solid tumours","16 mg once daily, dose-ranging cohort",patients with AST increased TEAE,100%
CN1CC[C@@H](c2c(O)cc(O)c3c(=O)cc(-c4ccc(C(F)(F)F)cc4Cl)oc23)[C@@H]1CO,measured: Neutropenia,relapsed or refractory haematological malignancies,"oral, dose not given, all arms",patients with adverse event,10%
N=C(CC(O)c1cc2c(F)cc(F)cc2c2cc(C(F)(F)F)ccc12)Nc1ccc(Br)cc1 (stereo not shown),,human blood,"2.5 ng/mL, 30 min",blood-to-plasma ratio,0.93 ± 0.06
O=C(C1CCOCC1)N1CC(=O)N2CCc3ccccc3[C@@H]2C1,,"NMRI mouse, female, S. mansoni-infected, plasma",200 mg/kg,Cmax of (R)-enantiomer,97.2 µM
COc1cc2c(Oc3ccc4[nH]c(C)cc4c3F)ccnc2cc1OCC1(N)CC1,,paediatric recurrent refractory sarcoma,8 mg,grade 1 or 2 blurred vision,0%
O=C(Nc1ccccc1)C1CCN(C(=O)Oc2cccnc2)CC1,measured: skin disorders,healthy women,"oral, 20 mg, 7 days",subjects with adverse event,14.3%

# Repeated from above:
SMILES,test,test system,conditions,measurement,value
CCc1ccc(CC/C=C/c2ccc3c(c2)C(=O)CC3)cc1,,"Sprague-Dawley rat, female","oral, 450 mg/kg/day, 14 days",Lymphocyte percentage,71.7%
Nc1nc2cc(-c3ccc4ncc(C(=O)N5CCOCC5)n4c3)ccc2o1,"drug-related adverse events, all grades",patients with advanced solid tumours,dose not given,patients with adverse events,89%
